Experimental data gathered from unrelated publications.
Lines come from different studies, so protocols differ. ± gives the spread as reported.

CC(C)[C@H](NC(=O)OC(C)(C)C)C(=O)OC1CCC2(C)C(C(O)CC3(C)C2CC(O)C2C(C4(C)CCCC(C)(C)O4)CCC23C)C1(C)C (stereo partly shown) — IC50 (Hep3B; HRE reporter gene, inhibitor; 24 h, hypoxia): 1.95 ± 0.15 µM
COc1cc(CN2CCN(c3ccc(C(F)(F)F)cc3)CC2)c2cc3[n+](cc2c1O)CCc1cc2c(cc1-3)OCO2 — IC50 (Ca-Ski; cell growth or viability, SRB; 48 h): 4.82 µg/mL
O=[N+]([O-])c1ccc(C=[N+]2N=C(Nc3ccccc3)[S][Pd-]2([Cl])[Cl])s1 — IC50 (MDCK; cell proliferation): 55.3 µM
COc1cc(O)c(C(=O)/C=C/c2ccc(O)cc2)c(OC)c1 — IC50 (human cells; NF-κB reporter gene, inhibitor; with: TNF-alpha): 7.94 µM
CN(C)CCCO/N=C1/C=C2CCC3C(CC[C@]4(C)/C(=C/c5ccccn5)CCC34)[C@@]2(C)CC1 (stereo partly shown) — IC50 (CEM; cytotoxicity, alamarBlue; 72 h): 13.9 µM
FC(F)(F)c1n[nH]cc1-c1nc2ccc3[nH]ncc3c2c2c1CCCCC2 — IC50 (MOLM-14; cell growth or viability, resazurin; 72 h): 0.0166 µM
COc1cc(CN2CCN(c3ccc([N+](=O)[O-])cc3)CC2)c2cc3[n+](cc2c1O)CCc1cc2c(cc1-3)OCO2 — IC50 (Ca-Ski; cell growth or viability, SRB; 48 h): 4.56 µg/mL
CCC(C)C1OC(=O)C(C)(C)C(=O)C(Cc2ccccc2)OC(=O)C(C(C)C)OC(=O)C(NC(=O)c2cccc(O)c2)C(C)OC1=O (stereo not shown) — IC50 (SGC-7901/DDP cisplatin-resistant; cell viability, CCK-8; 72 h): > 20 µM
CC1(C)CCCC(C)(C2CCC3(C)C2C(O)CC2C4(C)CCC(OC(=O)C=Cc5ccccc5)C(C)(C)C4C(OC(=O)C=Cc4ccccc4)CC23C)O1 (stereo not shown) — IC50 (Hep3B; HRE reporter gene, inhibitor; 24 h, hypoxia): > 30 µM
O=C(/C=C/C=C/c1ccccc1)c1ccccc1OCc1cc(F)cc(F)c1 — IC50 (SK-BR-3; cell growth or viability, MTT; 48 h): 16.9 µM

For quick reference, copied from above:
FC(F)(F)c1n[nH]cc1-c1nc2ccc3[nH]ncc3c2c2c1CCCCC2 — IC50 (MOLM-14; cell growth or viability, resazurin; 72 h): 0.0166 µM
